# Results gathered from unrelated publications.
# Every numbered part comes from another study and shows a few of its results, in no order. Changes are numbered by the printed parent chain.

# Block 1
# Target: CCNA2, cyclin fold, Cln2 fusion (human)
# Technique: yeast growth competition, sequencing
# Medium: yeast
# Setting: strong parent motif
# Baseline: not given
# Reading: higher = stronger binding
# Starting sequence: viral docking peptide; YKVKRRLVFGADD; partner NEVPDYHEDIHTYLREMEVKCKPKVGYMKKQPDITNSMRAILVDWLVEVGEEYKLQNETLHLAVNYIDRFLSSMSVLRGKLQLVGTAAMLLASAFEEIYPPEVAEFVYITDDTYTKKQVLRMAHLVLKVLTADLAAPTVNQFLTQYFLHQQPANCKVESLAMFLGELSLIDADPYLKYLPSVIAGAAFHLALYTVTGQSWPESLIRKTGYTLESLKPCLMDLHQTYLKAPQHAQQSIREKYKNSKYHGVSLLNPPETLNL
Change,normalised enrichment score
YKHKRRLVFGADD [V3H],4.2
YKVKRRLVQGADD [F9Q],1.11
YKVLRRLVFGADD [K4L],2.17
YTVKRRLVFGADD [K2T],6.15
YKVKRRLVFGAVD [D12V],6.62

# Block 2
# Target: UDP-N-acetylglucosamine--peptide N-acetylglucosaminyltransferase 110 kDa subunit (OGT, Homo sapiens, UniProt O15294)
# Sequence of UniProt O15294 (whole entry, looked up): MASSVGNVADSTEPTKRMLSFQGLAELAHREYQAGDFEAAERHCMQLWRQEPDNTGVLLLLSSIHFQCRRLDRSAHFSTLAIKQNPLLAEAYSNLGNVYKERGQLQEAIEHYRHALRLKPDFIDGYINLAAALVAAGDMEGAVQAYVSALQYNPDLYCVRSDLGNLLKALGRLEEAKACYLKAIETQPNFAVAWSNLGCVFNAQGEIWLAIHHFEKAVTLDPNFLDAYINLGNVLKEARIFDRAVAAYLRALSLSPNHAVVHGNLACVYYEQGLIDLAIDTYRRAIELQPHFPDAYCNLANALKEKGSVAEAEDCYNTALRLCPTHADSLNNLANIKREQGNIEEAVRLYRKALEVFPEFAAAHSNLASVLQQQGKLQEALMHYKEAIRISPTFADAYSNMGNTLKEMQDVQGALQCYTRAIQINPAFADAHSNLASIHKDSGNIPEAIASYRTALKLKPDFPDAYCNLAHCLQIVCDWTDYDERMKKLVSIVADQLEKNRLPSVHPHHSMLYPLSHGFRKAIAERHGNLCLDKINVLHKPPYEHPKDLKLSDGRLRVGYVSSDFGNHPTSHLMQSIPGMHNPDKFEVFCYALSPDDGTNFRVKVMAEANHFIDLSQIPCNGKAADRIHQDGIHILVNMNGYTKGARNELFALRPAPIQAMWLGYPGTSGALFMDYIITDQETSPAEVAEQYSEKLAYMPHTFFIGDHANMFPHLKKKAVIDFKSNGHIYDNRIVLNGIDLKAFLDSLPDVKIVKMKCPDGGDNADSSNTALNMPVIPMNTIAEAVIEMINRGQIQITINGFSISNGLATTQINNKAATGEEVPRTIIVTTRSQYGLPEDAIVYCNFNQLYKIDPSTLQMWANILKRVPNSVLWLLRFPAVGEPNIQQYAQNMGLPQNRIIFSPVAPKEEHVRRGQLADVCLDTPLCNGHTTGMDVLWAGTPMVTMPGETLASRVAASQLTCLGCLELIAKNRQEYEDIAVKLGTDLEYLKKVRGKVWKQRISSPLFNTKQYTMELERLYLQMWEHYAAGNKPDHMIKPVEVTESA
# Read-out: binding
# Technique: phage display NGS
# Molecule type: peptide
# Tested at: concentration not given
# Baseline: input library
Molecule,enrichment fold change
SVMHHHHSATTYLG,6.95
VERWFPPKYQMPIQG,14.8
HIAHQYPHQAKPSGH,4.27
HQHKLTPMFKHHGAM,2.58

# Block 3
# Target: Interferon regulatory factor 7, full length, phosphomimetic (IRF7, Homo sapiens, UniProt Q92985, residues 1-503, S471D/S472D/S475D/S476D/S477D/S483D/S484D/S487D)
# Sequence of UniProt Q92985 (whole entry, unmodified, looked up): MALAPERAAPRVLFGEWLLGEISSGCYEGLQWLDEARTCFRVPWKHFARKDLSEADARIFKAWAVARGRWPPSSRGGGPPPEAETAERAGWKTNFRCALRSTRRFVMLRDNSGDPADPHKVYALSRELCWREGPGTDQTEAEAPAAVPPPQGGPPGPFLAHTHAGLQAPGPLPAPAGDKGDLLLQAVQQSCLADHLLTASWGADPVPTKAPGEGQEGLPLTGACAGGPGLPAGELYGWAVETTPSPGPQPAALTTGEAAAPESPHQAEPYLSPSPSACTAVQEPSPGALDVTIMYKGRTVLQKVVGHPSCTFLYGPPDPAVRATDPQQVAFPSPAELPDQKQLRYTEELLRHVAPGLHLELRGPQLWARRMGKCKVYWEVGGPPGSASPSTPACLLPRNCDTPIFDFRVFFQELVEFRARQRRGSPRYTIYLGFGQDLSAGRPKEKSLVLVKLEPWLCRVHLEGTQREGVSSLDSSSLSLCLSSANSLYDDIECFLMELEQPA
# Technique: protein-binding microarray
# Molecule type: double-stranded DNA, one strand shown
# Medium: in vitro
# Tested at: 2200 nM top
# Setting: 60-bp whole probe
# With: salmon DNA 0.4 mg/ml
# Baseline: random background probes
# Reading: higher = stronger binding
# Shared flanks, not repeated: GCCTAGCAC … GTCTTGATTCGCTTGACGCTGCTG
Sequence,fitted relative affinity
TCAGTCTTCCCTTTTAAACTGTGCTAG,1.92 z-score
GTTGTACTTTCTATCTCTGTGTGCTAG,4.82 z-score
GACGGACTGGAATTTCGGGACGTGCTA,0.415 z-score
GACGAACTGAAACTGGAGACGTGCTAG,1.25 z-score
TTTACTTTCTGAATGCCCTCGTGCTAG,5.91 z-score
TTAGGTTTCGACTATCGGATAGTGCTA,3.16 z-score
AACGATTTCGGGACTGGAGACGTGCTA,1.37 z-score
TCAACAGTTTTATTTTAGACTGTGCTA,0.183 z-score

# Block 4
# Target: Max-binding protein MNT, bHLH-zipper, MAX partner unstated (MNT, Homo sapiens, UniProt Q99583, residues 220-300)
# Technique: protein-binding microarray
# Molecule type: double-stranded DNA, one strand shown
# Medium: in vitro
# Tested at: not given
# Setting: k-mer, scored over probes, only values ≥0.25
# Reading: higher = stronger binding
# Residues (chain): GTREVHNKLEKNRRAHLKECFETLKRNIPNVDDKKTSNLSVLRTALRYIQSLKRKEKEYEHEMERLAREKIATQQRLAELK
Sequence,E-score
ATAGCGTG,0.353
AACACGCG,0.454
AAGTCACG,0.326
CACGCTCG,0.406
CCCTCCCA,0.316
ACGCGGGA,0.356
ACGTGCAA,0.431
ACGCGGAC,0.328
